Published values pooled from the literature.
Parts stem from different laboratories: compare values within a part only. Several values in a cell are separate wells, animals, samples, runs or records.
UniProt Q9HBH9, sequence (whole entry, looked up): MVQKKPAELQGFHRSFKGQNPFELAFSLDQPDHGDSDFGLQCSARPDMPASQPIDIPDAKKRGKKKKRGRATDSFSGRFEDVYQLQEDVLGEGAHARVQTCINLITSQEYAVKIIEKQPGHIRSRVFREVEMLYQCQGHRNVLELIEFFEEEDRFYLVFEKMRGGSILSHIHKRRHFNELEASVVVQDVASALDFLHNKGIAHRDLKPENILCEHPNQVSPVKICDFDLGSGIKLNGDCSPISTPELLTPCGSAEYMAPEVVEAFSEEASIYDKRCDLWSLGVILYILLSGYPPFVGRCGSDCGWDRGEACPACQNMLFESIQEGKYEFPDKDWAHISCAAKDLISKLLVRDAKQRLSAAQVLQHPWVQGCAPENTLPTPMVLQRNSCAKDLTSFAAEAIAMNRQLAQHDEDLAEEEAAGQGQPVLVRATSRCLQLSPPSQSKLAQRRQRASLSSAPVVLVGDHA
UniProt Q15349, sequence (whole entry, looked up): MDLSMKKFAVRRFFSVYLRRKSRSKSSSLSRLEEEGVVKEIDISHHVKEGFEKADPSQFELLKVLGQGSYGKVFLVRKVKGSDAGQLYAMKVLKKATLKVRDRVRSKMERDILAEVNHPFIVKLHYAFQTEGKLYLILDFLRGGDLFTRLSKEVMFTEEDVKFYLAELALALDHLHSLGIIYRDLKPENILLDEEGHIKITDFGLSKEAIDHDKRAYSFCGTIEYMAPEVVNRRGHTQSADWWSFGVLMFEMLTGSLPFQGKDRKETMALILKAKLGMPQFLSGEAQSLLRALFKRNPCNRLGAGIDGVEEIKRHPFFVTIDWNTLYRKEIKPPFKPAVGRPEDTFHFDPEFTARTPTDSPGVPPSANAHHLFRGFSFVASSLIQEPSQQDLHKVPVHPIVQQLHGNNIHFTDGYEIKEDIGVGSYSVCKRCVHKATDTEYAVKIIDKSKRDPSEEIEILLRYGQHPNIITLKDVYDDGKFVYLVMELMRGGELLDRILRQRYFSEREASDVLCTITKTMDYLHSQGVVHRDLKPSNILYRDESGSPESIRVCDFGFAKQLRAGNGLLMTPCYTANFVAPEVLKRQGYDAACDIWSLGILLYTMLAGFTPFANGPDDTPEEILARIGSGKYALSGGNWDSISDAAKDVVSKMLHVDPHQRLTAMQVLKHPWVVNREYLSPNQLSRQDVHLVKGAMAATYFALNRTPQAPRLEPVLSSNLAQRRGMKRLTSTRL
UniProt P49674, sequence (whole entry, looked up): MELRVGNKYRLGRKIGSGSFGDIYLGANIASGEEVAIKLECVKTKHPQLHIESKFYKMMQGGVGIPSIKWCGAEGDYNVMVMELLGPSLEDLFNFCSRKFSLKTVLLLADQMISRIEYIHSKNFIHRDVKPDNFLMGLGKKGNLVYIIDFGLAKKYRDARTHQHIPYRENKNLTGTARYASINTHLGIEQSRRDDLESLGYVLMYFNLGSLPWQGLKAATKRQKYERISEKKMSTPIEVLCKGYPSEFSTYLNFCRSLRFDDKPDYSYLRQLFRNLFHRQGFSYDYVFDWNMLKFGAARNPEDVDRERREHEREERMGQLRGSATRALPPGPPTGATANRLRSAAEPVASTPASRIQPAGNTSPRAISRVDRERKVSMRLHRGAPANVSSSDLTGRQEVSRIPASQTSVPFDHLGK
UniProt P31152, sequence (whole entry, looked up): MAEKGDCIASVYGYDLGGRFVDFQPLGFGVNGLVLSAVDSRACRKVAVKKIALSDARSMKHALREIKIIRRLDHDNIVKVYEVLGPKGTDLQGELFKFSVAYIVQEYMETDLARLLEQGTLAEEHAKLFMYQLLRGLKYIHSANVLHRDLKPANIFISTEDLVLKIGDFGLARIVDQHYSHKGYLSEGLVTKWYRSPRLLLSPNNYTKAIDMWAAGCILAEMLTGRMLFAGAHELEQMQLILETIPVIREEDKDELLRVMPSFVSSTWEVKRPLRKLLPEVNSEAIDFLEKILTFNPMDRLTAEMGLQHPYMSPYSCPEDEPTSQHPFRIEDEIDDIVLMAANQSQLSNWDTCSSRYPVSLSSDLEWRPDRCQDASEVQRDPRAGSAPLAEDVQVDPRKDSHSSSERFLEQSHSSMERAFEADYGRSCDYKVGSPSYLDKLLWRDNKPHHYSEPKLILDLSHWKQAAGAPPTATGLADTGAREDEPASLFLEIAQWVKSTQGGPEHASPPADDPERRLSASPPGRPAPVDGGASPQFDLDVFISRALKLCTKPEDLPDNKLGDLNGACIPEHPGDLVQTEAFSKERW
UniProt Q96SB4, sequence (whole entry, looked up): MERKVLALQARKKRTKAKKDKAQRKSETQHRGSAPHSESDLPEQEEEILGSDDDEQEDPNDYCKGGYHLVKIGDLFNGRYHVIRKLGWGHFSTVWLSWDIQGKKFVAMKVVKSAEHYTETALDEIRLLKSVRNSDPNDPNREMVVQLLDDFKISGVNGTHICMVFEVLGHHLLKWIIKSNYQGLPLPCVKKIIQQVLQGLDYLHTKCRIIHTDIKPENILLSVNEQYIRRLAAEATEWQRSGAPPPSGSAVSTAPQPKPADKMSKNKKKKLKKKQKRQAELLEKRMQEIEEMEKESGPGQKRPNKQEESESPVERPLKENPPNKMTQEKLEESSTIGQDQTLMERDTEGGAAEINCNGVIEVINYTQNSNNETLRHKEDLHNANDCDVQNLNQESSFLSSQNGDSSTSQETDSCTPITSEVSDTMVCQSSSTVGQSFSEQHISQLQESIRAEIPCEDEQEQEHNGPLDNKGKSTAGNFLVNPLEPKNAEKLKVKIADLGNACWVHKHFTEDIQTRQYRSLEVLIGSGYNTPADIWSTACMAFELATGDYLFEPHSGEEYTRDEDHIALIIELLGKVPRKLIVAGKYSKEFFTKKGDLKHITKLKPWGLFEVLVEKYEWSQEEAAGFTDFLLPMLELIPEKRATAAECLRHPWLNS
UniProt Q92772, sequence (whole entry, looked up): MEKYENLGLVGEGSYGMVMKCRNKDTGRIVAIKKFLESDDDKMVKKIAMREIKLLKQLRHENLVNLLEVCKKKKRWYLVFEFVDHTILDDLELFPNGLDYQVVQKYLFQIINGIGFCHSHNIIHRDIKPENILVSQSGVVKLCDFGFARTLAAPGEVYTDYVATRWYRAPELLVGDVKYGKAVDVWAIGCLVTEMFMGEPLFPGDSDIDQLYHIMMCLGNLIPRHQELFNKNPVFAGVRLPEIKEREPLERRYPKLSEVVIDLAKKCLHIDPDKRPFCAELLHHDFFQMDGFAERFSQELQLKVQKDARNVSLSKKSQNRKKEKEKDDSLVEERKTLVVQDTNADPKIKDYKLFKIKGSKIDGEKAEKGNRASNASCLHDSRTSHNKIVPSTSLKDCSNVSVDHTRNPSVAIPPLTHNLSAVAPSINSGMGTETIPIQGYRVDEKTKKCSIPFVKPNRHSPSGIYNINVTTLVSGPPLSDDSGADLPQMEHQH
UniProt P41743, sequence (whole entry, looked up): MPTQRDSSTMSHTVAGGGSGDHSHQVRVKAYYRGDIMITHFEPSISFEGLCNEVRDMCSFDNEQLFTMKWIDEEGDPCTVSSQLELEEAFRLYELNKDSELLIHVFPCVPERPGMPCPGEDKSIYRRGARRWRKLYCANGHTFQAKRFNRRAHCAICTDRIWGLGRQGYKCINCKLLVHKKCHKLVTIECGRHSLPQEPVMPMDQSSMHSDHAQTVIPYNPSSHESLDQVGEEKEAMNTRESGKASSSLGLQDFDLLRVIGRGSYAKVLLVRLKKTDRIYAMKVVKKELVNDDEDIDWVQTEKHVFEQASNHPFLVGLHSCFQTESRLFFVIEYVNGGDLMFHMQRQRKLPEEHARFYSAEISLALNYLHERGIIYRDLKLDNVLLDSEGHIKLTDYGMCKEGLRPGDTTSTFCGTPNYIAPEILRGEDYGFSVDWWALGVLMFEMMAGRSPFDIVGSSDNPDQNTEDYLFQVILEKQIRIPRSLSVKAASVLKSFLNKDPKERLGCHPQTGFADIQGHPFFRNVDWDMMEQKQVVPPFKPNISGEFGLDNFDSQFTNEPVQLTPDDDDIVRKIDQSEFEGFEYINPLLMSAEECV

Sample 1 — species: mouse; sample: microsomes or S9; concentration: 2 µM; time: 0.5 h
| Compound | remaining compound |
| --- | --- |
| Cc1cc(C)c2c(n1)nn1c(-n3ccnc3)cc(C)nc21 | 15.4% |
| CC(C)Oc1nnc(SCc2nc3c(=O)n(C)c(=O)n(C)c3[nH]2)s1 | 59.1% |
| CCOC(=O)N1C[C@H]2CCCN(C(=O)C3CCCN3S(=O)(=O)c3ccc(C)cc3)[C@@H]2C1 (some centres unmarked) | 6.62% |
| O=C(CNC(=O)Cc1ccccc1)NCC(=O)OCc1cccc(C(=O)c2ccccc2)c1 | 1.15% |
| CC(=O)c1cccc(N(CC(=O)Nc2ccc(S(=O)(=O)N3CCCC3)cc2)S(C)(=O)=O)c1 | 1.19% |
| CN(C)c1nc(Cl)nc(Oc2ccc(=O)n(C)n2)n1 | 30.8% |
| CN1C(=O)c2cccc(-c3cc(Cl)cc(Cl)c3)c2C1(C)C | 39.7% |
| Cn1ncc2c(NCCO)nc(Nc3cccc(F)c3)nc21 | 2.04% |
| COC(=O)c1ccccc1NC(=O)CSc1nnnn1-c1ccc(OCc2ccccc2)cc1 | 0.355% |
| CCn1c(=O)n(Cc2cc(-c3ccccc3)no2)c2ccccc21 | 0.864% |
| OC(Cn1c(Cc2ccccc2)nc2ccccc21)Cn1c2ccccc2c2ccccc21 (centres unmarked) | 11.7% |
| CC(C)(C)NS(=O)(=O)c1ccc(CCC(=O)N2CCCCCC2)cc1 | 2.2% |
| COc1ccc(NS(=O)(=O)c2c(C)nn(-c3ccc(-c4ccccc4)nn3)c2C)cc1F | 45.4% |
| Cc1ccc2c(c1C)NC(=O)CC2c1ccc(O)cc1 (centres unmarked) | 8.96% |
| O=C(C1Cc2cc(Cl)ccc2O1)N1CCCC(O)(c2ccc(F)cc2)CC1 (centres unmarked) | 10.2% |

Sample 2 — technique: competition with immobilised ligand; concentration: 1 µM
SMILES: O=C(O)[C@@H]1[C@@H](Cn2nnc3ccccc3c2=O)CC[C@H]1C(=O)c1ccc(OCCC2CCOCC2)cc1
| target | assay | remaining binding [%] |
| --- | --- | --- |
| CSNK1E (Homo sapiens, UniProt P49674) | cell-free assay | 90 |
| CLK4 (Homo sapiens, UniProt Q9HAZ1) | cell-free assay | 100 |
| SRPK1 (Homo sapiens, UniProt Q96SB4) | cell-free assay | 100 |
| COQ8B (Homo sapiens, UniProt Q96D53) | cell-free assay | 64 |
| RIOK1 (Homo sapiens, UniProt Q9BRS2) | cell-free assay | 100 |
| WNK4 (Homo sapiens, UniProt Q96J92) | cell-free assay | 75 |
| FLT3 (Homo sapiens, UniProt P36888, ITD) | cell-free assay | 100 |
| PRKCI (Homo sapiens, UniProt P41743) | cell-free assay | 100 |
| EGFR (Homo sapiens, UniProt P00533, L858R/T790M) | cell-free assay | 76 |
| ERBB4 (Homo sapiens, UniProt Q15303) | cell-free assay | 100 |
| MAPK4 (Homo sapiens, UniProt P31152) | cell-free assay | 100 |
| TAOK2 (Homo sapiens, UniProt Q9UL54) | cell-free assay | 76 |
| MKNK2 (Homo sapiens, UniProt Q9HBH9) | cell-free assay | 99 |
| TGFBR1 (Homo sapiens, UniProt P36897) | cell-free assay | 100 |
| CDKL2 (Homo sapiens, UniProt Q92772) | binding | 73 |
| MET (Homo sapiens, UniProt P08581, M1250T) | cell-free assay | 100 |
| STK36 (Homo sapiens, UniProt Q9NRP7) | cell-free assay | 91 |
| WNK1 (Homo sapiens, UniProt Q9H4A3) | cell-free assay | 100 |
| Ribosomal protein S6 kinase alpha-2, N-terminal kinase domain (RPS6KA2, Homo sapiens, UniProt Q15349) | cell-free assay | 96 |
| CDK3 (Homo sapiens, UniProt Q00526) | cell-free assay | 100 |
| SIK2 (Homo sapiens, UniProt Q9H0K1) | cell-free assay | 91 |

Sample 3 — effect on: enzyme activity; action: inhibitor; concentration: 0.5 µM; baseline: control
Target: Cytoplasmic tyrosine-protein kinase BMX (BMX, Homo sapiens, UniProt P51813)
Residues (P51813 1-675): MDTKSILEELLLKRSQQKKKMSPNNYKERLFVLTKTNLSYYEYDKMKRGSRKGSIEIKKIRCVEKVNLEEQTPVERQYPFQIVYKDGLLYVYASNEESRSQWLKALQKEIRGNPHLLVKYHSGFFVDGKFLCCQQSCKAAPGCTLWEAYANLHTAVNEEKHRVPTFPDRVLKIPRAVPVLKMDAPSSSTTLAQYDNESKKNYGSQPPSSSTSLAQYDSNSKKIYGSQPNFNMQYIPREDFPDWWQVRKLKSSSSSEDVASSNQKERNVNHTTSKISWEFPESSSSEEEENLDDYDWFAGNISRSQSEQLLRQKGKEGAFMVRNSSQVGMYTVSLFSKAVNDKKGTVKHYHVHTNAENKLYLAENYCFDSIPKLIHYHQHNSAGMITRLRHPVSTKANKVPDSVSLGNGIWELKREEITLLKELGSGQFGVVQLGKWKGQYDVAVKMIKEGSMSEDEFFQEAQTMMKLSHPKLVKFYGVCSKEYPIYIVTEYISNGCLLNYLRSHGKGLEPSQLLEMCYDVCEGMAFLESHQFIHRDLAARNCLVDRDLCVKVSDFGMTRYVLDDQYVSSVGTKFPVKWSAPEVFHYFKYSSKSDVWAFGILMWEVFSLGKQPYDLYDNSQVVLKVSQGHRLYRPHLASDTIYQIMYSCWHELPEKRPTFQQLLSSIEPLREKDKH
| SMILES | remaining activity [%] |
| --- | --- |
| Cc1ccc(NC2=CC(=O)c3sc(C)nc3C2=O)cc1 | 100 |
| COc1ccc(S(=O)(=O)N(CCO)c2ccccc2CN(C)CC=Cc2ccc(Cl)cc2)cc1 | 101 |
| CC(=O)c1ccc(N2CCOCC2)cc1O | 90.6 |
| O=S(=O)(NCCNC/C=C/c1ccc(Br)cc1)c1cccc2cnccc12 | 102 |
| NC(=O)c1ccc(N(C(N)=O)c2c(F)cccc2F)nc1-c1ccc(F)cc1F | 108 |
| CC[n+]1c(/C=C/N(C)c2ccccc2)n(-c2ccccc2)c2ccc(-c3nc4ccccc4s3)cc21 | 108 |
| Cc1cc(Nc2nc(-c3ccccc3)nc3ccccc23)n[nH]1 | 41.1 |
| CCCC(=O)Oc1ccc2[nH]c(C(=O)c3cc4ccccc4[nH]3)cc2c1 | 97.4 |
| N#CC(=C(N)Sc1ccc(N)cc1)c1ccccc1C(F)(F)F | 99.7 |
| Nc1ncnc2c1cnn2-c1ccccc1 | 96.8 |
| O=C1Cc2c([nH]c3ccc([N+](=O)[O-])cc23)-c2ccccc2N1 | 110 |
| Nc1nccc(-c2c(-c3ccc(F)cc3)ncn2C2CCNCC2)n1 | 92.9 |
| O=C1NC(=O)C(c2c[nH]c3ccccc23)=C1c1c[nH]c2ccccc12 | 100 |
| Oc1ccc(Nc2nc(-c3ccc(Cl)cc3)cs2)cc1 | 103 |
| CC#CC(=O)Nc1cc2c(Nc3ccc(F)c(Cl)c3)ncnc2cn1 | 2.54 |
| Cc1cncc2cccc(S(=O)(=O)N3CCCN(C(=O)CN)C[C@@H]3C)c12 | 94 |
| CC(C)(C)n1nc(Cc2cccc3ccccc23)c2c(N)ncnc21 | 25.2 |
| CCc1[nH]c(-c2ccc(OC)cc2)nc1-c1ccncc1 | 93.4 |
| CSc1nc(-c2ccnc(N[C@@H](C)c3ccccc3)c2)c(-c2ccc(F)cc2)[nH]1 (racemic) | 102 |

Sample 4 — cell line: mouse MPNST tumor cells; technique: high-content immunofluorescence imaging; item: nuclear SOX9; concentration: 10 µM; time: 12 h; notes: mean of 2 replicates; baseline: DMSO control; reading: higher = more nuclear SOX9
| Compound | nuclear SOX9 intensity |
| --- | --- |
| Cc1cc(CN)cc(C)c1-c1ncn(C)c1-c1ccnc2cc(F)ccc12 | 104 % of DMSO |
| CCc1c2c(nc3ccc(O)cc13)-c1cc3c(c(=O)n1C2)COC(=O)[C@]3(O)CC | 104 % of DMSO and 154 % of DMSO |
| N#Cc1c(-c2ccccc2)cc(-c2cc(Br)ccc2O)[nH]c1=O | 101 % of DMSO |
| CCC(=O)OCC(=O)[C@@]1(OC(=O)CC)[C@H](C)C[C@H]2[C@H]3[C@H]([C@@H](O)C[C@@]21C)[C@@]1(C)C=CC(=O)C=C1C[C@H]3Cl | 67.4 % of DMSO |
| CCCN(CCC)CCc1cccc2c1CC(=O)N2 | 104 % of DMSO |
| CN(C)CCC=C1c2ccccc2COc2ccccc21 | 150 % of DMSO |
| CN(C)CCC(c1ccccc1)c1ccccn1 (centres unmarked) | 99.6 % of DMSO |
| CC(=O)OCC(CCn1cnc2cnc(N)nc21)COC(C)=O | 91.7 % of DMSO |
| CC(C)NC(=O)c1ccc(C#Cc2ccncc2)cn1 | 91 % of DMSO |
| CN1CCN(C(=O)c2nc3ccc(Cl)cc3[nH]2)CC1 | 115 % of DMSO |

Excerpt of the above (sample 4):
| Compound | nuclear SOX9 intensity |
| --- | --- |
| CN1CCN(C(=O)c2nc3ccc(Cl)cc3[nH]2)CC1 | 115 % of DMSO |
| Cc1cc(CN)cc(C)c1-c1ncn(C)c1-c1ccnc2cc(F)ccc12 | 104 % of DMSO |
| CC(C)NC(=O)c1ccc(C#Cc2ccncc2)cn1 | 91 % of DMSO |
| CCCN(CCC)CCc1cccc2c1CC(=O)N2 | 104 % of DMSO |
| CC(=O)OCC(CCn1cnc2cnc(N)nc21)COC(C)=O | 91.7 % of DMSO |
| CN(C)CCC=C1c2ccccc2COc2ccccc21 | 150 % of DMSO |
| N#Cc1c(-c2ccccc2)cc(-c2cc(Br)ccc2O)[nH]c1=O | 101 % of DMSO |
| CCC(=O)OCC(=O)[C@@]1(OC(=O)CC)[C@H](C)C[C@H]2[C@H]3[C@H]([C@@H](O)C[C@@]21C)[C@@]1(C)C=CC(=O)C=C1C[C@H]3Cl | 67.4 % of DMSO |
